Assay results collected from several papers.
Each numbered part is a random draw from the data of one study; scales do not carry over between parts. Positions count from the first letter of the parent shown.

Sample 1
Target: CCNB2, cyclin fold, Cln2 fusion (human)
Method: yeast growth competition, sequencing
Sample: yeast
Setting: weak parent motif
Reference: not given
Direction: higher = stronger binding
Starting sequence: RBL2 docking peptide (human); STTRRRLFVENDS; partner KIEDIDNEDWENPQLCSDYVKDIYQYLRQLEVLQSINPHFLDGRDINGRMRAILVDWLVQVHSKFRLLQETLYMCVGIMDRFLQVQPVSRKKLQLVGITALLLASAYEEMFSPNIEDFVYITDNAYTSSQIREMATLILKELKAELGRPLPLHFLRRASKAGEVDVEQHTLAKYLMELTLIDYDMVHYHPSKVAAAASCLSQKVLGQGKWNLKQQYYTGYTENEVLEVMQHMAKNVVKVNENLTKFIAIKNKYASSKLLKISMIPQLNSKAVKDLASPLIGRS
Under “normalised enrichment score”, `STTRRKLFVENDS [R6K]` is recorded as 0.74.
For `VTTRRRLFVENDS [S1V]`, “normalised enrichment score” read 0.245.
`STTRRRLFVENDY [S13Y]` — result for “normalised enrichment score”: 0.598.
Under “normalised enrichment score”, `STTRRRLFVEIDS [N11I]` is recorded as 0.274.
`STNRRRLFVENDS [T3N]`: “normalised enrichment score” 0.0466.
`SFTRRRLFVENDS [T2F]` — result for “normalised enrichment score”: -0.517.
For `STTRRRLFVEQDS [N11Q]`, “normalised enrichment score” read 0.477.
For `STTRRRLFVENTS [D12T]`, “normalised enrichment score” read 0.395.
`STTRRRLFVENQS [D12Q]` — result for “normalised enrichment score”: 0.221.
Under “normalised enrichment score”, `STTRRRLFVENDD [S13D]` is recorded as 0.924.
Under “normalised enrichment score”, `SQTRRRLFVENDS [T2Q]` is recorded as 0.114.

Sample 2
Target: Fragile X messenger ribonucleoprotein 1, C-terminal low-complexity region (Fmr1, Mus musculus, UniProt P35922)
Method: RNA Bind-n-Seq
Form: RNA
Sample: in vitro
Tested at: 200 nM
Setting: whole 134-nt RNA, ends assumed
Together with: 150 mM LiCl
Reference: input library
Direction: higher = stronger binding
Library: 7-deaza-guanosine replaces G
For `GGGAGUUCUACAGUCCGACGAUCUCAAGUCCUGUGCUACACAUCGUAUGUACCGAAUCGGCCGGGGCCGGGCCGGGGAAAGUAUUAUGUUACGCCGUUCGGAUCUGCACUUCCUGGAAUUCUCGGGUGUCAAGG`, the log2 enrichment was -0.316.
`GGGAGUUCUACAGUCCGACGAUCUGGGAGGUGGAUUUUGUUUAUUUUUUUAGCUCAUUUCCAGGGGUGGGAAUUUUUUUUUAAUAUGUGUCAUGAAUAAAGUUUUUUUUGAAAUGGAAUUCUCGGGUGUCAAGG` gave a log2 enrichment of 0.336.
`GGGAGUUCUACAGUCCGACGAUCGUCCUGUGCUACACAUCGUAUGUACCGAAUCGGGUUUUUGGGGUUUUUGGUUUUUGGGAAAGUAUUAUGUUACGCCGUUCGGAUCUGCACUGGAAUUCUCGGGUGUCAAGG` gave a log2 enrichment of -1.57.
The log2 enrichment of `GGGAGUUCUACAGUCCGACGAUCGCAGGAAGUAAAAACAAAUGGAACUGCUUCGGAUAGUGGCAGGGGUGGGGGUUGCUAAGGAAAGGGUGGGAUGGGAGUGGGUAAAGAGUUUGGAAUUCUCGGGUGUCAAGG` is reported as 1.55.
`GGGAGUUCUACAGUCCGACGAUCAGUCCUGUGCUACACAUCGUAUGUACCGAAUCGGGGUUUUUGGGGUGGGGUUUGGGGAAAGUAUUAUGUUACGCCGUUCGGAUCUGCACUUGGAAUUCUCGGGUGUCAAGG` gave a log2 enrichment of -0.965.
For `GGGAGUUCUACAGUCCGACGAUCGUCCUGUGCUACACAUCGUAUGUACCGAAUCGGGAGGGUUUUUUUGGGAAAAAAAGGGAAAGUAUUAUGUUACGCCGUUCGGAUCUGCACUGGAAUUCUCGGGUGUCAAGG`, the log2 enrichment was -1.16.
With `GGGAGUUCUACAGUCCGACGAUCCCUCAAGUCCUGUGCUACACAUCGUAUGUACCGAAUCGGGUGGGGUGGUGGGGAAAGUAUUAUGUUACGCCGUUCGGAUCUGCACUUCCAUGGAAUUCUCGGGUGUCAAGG` the log2 enrichment was -0.52.

Sample 3
Target: Centromere-binding protein 1, full length, His-tagged (CBF1, Saccharomyces cerevisiae, UniProt P17106, residues 1-351)
Chain of UniProt P17106 (whole entry, looked up): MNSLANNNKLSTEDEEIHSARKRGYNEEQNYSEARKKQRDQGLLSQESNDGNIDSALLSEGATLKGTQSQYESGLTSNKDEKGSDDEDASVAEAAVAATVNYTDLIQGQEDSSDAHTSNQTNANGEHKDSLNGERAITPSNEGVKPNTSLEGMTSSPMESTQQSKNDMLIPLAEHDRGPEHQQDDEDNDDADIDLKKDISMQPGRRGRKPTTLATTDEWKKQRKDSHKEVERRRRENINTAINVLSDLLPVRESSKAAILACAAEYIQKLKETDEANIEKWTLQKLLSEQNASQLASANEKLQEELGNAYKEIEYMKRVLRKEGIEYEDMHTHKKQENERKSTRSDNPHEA
Method: competition protein-binding microarray
Form: double-stranded DNA, one strand shown
Sample: in vitro
Tested at: 2 µM
Setting: whole 60-bp probe, lowest competitor level
Together with: Pho4 competitor, 0.05 µM
Direction: higher = stronger binding
For `ATAGTGGGCAGACTCCACGTGCAAATGACAGCCAGGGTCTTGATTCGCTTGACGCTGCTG`, the fluorescence intensity was 761 a.u.
The fluorescence intensity of `CTTTCCCGATCTTGCAGTGTGGGTGTAGCACATTTGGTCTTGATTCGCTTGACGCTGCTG` is reported as 69.2 a.u.
`AGGTGCCTTCGGTAACATGTGTCTTGGTGGTCGTATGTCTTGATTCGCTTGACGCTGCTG` gave a fluorescence intensity of 86.3 a.u.
With `TTGTCTCAACGCCATCACGTGACTCGCACTGCCTGCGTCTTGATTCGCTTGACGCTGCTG` the fluorescence intensity was 17200 a.u.
`AAATGAACTGCCAATAACATGCAAGAATGAAGACGGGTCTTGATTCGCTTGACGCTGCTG` gave a fluorescence intensity of 60.3 a.u.
For `GGGATCAAGACCCATCTCGTGCTTTATACCCGGGTCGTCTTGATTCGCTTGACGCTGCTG`, the fluorescence intensity was 104 a.u.

Further values, each from its own experiment
The fold induction of `PhoQ, residues 284 288 289 292 302 303 HSSMNL` is reported as 19.5 (PhoP, residues 12 14 15 18 19 LWHCS (Escherichia coli, UniProt P23836); Sort-seq, refers to: YFP reporter; E. coli; PhoQ-PhoP variant library, together with: 10 µM Mg2+; reference: high Mg2+ state, higher = stronger signaling).

Excerpt of the above (sample 1):
For `STTRRRLFVEQDS [N11Q]`, “normalised enrichment score” read 0.477.
`STNRRRLFVENDS [T3N]`: “normalised enrichment score” 0.0466.
`STTRRRLFVENDY [S13Y]` — result for “normalised enrichment score”: 0.598.
Under “normalised enrichment score”, `SQTRRRLFVENDS [T2Q]` is recorded as 0.114.
